# Assay results gathered from unrelated publications.
# ± gives the spread as reported.
SMILES,test,test system,conditions,endpoint,result
CCC(CC)n1c(Cc2cccs2)nc2cc(C(=O)N[C@@H](CC(=O)O)c3ccccc3)ccc21,,"Sprague-Dawley rat, male, plasma","ip, 10 mg/kg",clearance,47.7 ± 13 mL/min/kg
COc1cc(OC)c2c(=O)cc(-c3cc(C)c(OCCCN4CCN(C)CC4)c(C)c3)oc2c1,,"Sprague Dawley rat, male, plasma","oral, 20 mg/kg",clearance,48.3 ± 8.33 mL/min/kg
Nc1nc2cnc(C(=O)N3CCOC[C@@H]3c3ccc(C(F)(F)F)cc3)cc2c2c1COC2,,rat,"intravenous, 0.5 mg/kg",clearance,29.2 mL/min/kg
CCC(CC)n1c(Cc2ccco2)nc2cc(C(=O)N[C@@H](CC(=O)O)c3ccccc3)ccc21,,"Sprague-Dawley rat, male, plasma","ip, 10 mg/kg",clearance,34 ± 4.17 mL/min/kg
O=C1CC[C@H](N2Cc3cc(N4CCN(CC5CCN(c6ccc([C@@H]7c8ccc(O)cc8CC[C@@H]7c7ccccc7)cc6)CC5)CC4)ccc3C2=O)C(=O)N1,item: parent compound,"Sprague-Dawley rat, male, fed, plasma","intravenous, 5 mg/kg",clearance,15.4 mL/min/kg
CN1CC[C@@H](COc2cnc(C#N)cc2-c2ccn3nc(NC(=O)C4CC4)cc3c2)C1,,"rat, Sprague-Dawley, male, plasma","intravenous, 1 mg/kg",clearance,88 mL/min/kg
CC1(C)C(NC(=O)C(=NOC2(C(=O)O)CCC2)c2csc(N)n2)C(=O)N1OS(=O)(=O)O (centres unmarked),,"Sprague-Dawley rat, plasma","intravenous, 10 mg/kg",clearance,11.7 ± 4.54 mL/min/kg
O=C(NS(=O)(=O)c1cccs1)c1cc2ccccc2n1Cc1ccc(Br)c2ccccc12,,"Sprague-Dawley rat, male, plasma","intravenous, 2 mg/kg",clearance,16.3 mL/min/kg
CCCC[C@H](OC(C)=O)c1ccccc1C(=O)O,,"Sprague-Dawley rats, both sexes, whole blood","intravenous, 20 mg/kg single dose",clearance,10.1 ± 1.41 mL/min/kg
C=C(NC(=O)c1csc(-c2nc3c(cc2O)-c2nc(cs2)C(=O)NC(C(C)O)C(=O)NC(=C(C)OC)c2nc(cs2)C(=O)NC2c4nc(cs4)C(=O)NC(COC(=O)c4c5c6c(cccc6n4O)COC(=O)C(OC4CC(C)(O)C(N(C)C)C(C)O4)C2OC5)c2nc-3cs2)n1)C(N)=O (centres unmarked),,"Sprague-Dawley rat, female, plasma","intravenous infusion, 2 mg/kg single dose",clearance,36.1 mL/min/kg
O=C([O-])CN1CCN(CC(=O)O)CCN(CC(=O)[O-])CCN(CC(=O)O)CC1.[64Cu+2],dynamic micro-PET imaging,"rat, chronic myocardial infarction, remote myocardium",intravenous,clearance half-life,19.1 ± 2.4 min
